Published values pooled from the literature.
Parts stem from different laboratories: compare values within a part only. Positions count from the first letter of the parent shown.

Series 1 — method: aptamer microarray, sandwich; molecule type: DNA with 2'F-ANA; sample: in vitro; tested at: 200 nM; added: Cy3 exosite-II aptamer, 400 nM; reading: higher = stronger binding; strand: GGTTGGTGTGGTTGG
Target: Prothrombin, mature alpha-thrombin (F2, Homo sapiens, UniProt P00734)
Notes: whole 15-mer aptamer, many near background
Modification | mean fluorescence intensity
2'F-ANA at 2 4 10 11 | 136 a.u.
2'F-ANA at 1 2 3 6 7 8 9 10 11 12 14 | 53.8 a.u.
2'F-ANA at 1 5 6 8 10 11 13 14 15 | 57.1 a.u.
2'F-ANA at 5 10 11 13 14 15 | 87.4 a.u.
2'F-ANA at 1 4 5 6 8 12 14 15 | 47.1 a.u.
2'F-ANA at 1 8 9 10 11 12 14 | 48.4 a.u.
2'F-ANA at 1 6 8 9 10 11 12 14 | 53.2 a.u.
2'F-ANA at 6 8 9 10 11 12 13 | 166 a.u.

Series 2 — target: CCND2, cyclin fold, Cln2 fusion (human); method: yeast growth competition, sequencing; sample: yeast; notes: weak parent motif; relative to: not given; reading: higher = stronger binding
Parent: BRCA2 docking peptide (human); PSIKRNLLNEFDR; partner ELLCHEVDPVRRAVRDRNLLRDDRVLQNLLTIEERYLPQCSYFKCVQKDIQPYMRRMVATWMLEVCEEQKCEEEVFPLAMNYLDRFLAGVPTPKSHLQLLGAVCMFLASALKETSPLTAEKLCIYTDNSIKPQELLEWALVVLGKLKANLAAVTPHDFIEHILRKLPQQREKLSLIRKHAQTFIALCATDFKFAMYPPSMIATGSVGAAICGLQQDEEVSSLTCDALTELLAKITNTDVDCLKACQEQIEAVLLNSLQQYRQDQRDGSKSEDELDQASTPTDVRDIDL
Substitution | normalised enrichment score
PSIKRNLLNEFYR [D12Y] | 0.192
PSIKRNLLREFDR [N9R] | 0.144
PSIKANALNEFDR [R5A L7A] | 0.141
PSIQRNLLNEFDR [K4Q] | -0.165
PSAKRNLLNEFDR [I3A] | 0.253
PSIKRNLLSEFDR [N9S] | 0.345
PSYKRNLLNEFDR [I3Y] | 0.36
PSIKRNLLNEFWR [D12W] | 0.95
PSIKRNLLNEFDD [R13D] | 0.418

Series 3 — method: DHFR PCA, deep sequencing; sample: yeast; added: (+)-ABA 0.39 µM; relative to: wild-type fitted maximum; reading: higher = stronger binding
Target: ABI1, truncated, D143A, DHFR fusion (Arabidopsis thaliana)
Notes: methotrexate growth selection, single substitutions
Parent: PYL1, truncated, DHFR fusion (Arabidopsis thaliana); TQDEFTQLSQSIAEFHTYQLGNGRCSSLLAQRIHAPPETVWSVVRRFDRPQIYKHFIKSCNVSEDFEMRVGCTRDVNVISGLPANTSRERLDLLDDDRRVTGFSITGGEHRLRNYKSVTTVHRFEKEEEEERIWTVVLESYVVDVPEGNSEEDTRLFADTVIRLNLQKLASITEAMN; partner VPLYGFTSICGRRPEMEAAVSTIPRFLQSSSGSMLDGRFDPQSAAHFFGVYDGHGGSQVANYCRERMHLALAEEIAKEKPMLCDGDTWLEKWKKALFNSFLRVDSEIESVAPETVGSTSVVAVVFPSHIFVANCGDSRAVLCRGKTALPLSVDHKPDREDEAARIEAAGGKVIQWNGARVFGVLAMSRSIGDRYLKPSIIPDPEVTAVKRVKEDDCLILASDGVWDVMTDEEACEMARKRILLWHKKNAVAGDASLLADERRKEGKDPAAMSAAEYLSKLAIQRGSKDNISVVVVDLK
Substitution | relative binding score
R88W | 10.4%
S117M | 3.6%
F56A | -14.5%
T154R | -16.1%

Mixed results
Molecule | target | assay | system | setting | how to read | endpoint | value
PhoQ, residues 284 288 289 292 302 303 NSMLDC | PhoP, residues 12 14 15 18 19 NIMAP (Escherichia coli, UniProt P23836) | Sort-seq, measured: YFP reporter | E. coli | PhoQ-PhoP variant library, added: 10 µM Mg2+ | relative to: high Mg2+ state, higher = stronger signaling | fold induction | 0.404

A few entries again (series 2):
Substitution | normalised enrichment score
PSIKANALNEFDR [R5A L7A] | 0.141
PSIQRNLLNEFDR [K4Q] | -0.165
PSAKRNLLNEFDR [I3A] | 0.253
